Measured values gathered from unrelated publications.
Parts stem from different laboratories: compare values within a part only. ± marks the error that the study gave.
Chain of UniProt P34913 (whole entry, looked up): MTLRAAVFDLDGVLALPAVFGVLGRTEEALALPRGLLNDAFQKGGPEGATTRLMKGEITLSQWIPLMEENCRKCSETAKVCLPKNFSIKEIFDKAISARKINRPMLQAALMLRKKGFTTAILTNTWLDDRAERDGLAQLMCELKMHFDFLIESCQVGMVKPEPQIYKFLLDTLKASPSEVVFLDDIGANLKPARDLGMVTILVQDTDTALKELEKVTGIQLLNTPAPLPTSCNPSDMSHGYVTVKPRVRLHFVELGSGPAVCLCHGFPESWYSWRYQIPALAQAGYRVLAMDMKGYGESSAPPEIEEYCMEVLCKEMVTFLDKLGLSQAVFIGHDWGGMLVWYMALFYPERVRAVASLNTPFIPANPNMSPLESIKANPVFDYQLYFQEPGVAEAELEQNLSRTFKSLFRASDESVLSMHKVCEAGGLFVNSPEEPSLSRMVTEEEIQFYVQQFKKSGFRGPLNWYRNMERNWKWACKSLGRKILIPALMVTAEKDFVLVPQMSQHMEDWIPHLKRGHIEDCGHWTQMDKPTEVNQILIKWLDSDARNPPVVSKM
Chain of UniProt Q92793 (whole entry, unmodified, looked up): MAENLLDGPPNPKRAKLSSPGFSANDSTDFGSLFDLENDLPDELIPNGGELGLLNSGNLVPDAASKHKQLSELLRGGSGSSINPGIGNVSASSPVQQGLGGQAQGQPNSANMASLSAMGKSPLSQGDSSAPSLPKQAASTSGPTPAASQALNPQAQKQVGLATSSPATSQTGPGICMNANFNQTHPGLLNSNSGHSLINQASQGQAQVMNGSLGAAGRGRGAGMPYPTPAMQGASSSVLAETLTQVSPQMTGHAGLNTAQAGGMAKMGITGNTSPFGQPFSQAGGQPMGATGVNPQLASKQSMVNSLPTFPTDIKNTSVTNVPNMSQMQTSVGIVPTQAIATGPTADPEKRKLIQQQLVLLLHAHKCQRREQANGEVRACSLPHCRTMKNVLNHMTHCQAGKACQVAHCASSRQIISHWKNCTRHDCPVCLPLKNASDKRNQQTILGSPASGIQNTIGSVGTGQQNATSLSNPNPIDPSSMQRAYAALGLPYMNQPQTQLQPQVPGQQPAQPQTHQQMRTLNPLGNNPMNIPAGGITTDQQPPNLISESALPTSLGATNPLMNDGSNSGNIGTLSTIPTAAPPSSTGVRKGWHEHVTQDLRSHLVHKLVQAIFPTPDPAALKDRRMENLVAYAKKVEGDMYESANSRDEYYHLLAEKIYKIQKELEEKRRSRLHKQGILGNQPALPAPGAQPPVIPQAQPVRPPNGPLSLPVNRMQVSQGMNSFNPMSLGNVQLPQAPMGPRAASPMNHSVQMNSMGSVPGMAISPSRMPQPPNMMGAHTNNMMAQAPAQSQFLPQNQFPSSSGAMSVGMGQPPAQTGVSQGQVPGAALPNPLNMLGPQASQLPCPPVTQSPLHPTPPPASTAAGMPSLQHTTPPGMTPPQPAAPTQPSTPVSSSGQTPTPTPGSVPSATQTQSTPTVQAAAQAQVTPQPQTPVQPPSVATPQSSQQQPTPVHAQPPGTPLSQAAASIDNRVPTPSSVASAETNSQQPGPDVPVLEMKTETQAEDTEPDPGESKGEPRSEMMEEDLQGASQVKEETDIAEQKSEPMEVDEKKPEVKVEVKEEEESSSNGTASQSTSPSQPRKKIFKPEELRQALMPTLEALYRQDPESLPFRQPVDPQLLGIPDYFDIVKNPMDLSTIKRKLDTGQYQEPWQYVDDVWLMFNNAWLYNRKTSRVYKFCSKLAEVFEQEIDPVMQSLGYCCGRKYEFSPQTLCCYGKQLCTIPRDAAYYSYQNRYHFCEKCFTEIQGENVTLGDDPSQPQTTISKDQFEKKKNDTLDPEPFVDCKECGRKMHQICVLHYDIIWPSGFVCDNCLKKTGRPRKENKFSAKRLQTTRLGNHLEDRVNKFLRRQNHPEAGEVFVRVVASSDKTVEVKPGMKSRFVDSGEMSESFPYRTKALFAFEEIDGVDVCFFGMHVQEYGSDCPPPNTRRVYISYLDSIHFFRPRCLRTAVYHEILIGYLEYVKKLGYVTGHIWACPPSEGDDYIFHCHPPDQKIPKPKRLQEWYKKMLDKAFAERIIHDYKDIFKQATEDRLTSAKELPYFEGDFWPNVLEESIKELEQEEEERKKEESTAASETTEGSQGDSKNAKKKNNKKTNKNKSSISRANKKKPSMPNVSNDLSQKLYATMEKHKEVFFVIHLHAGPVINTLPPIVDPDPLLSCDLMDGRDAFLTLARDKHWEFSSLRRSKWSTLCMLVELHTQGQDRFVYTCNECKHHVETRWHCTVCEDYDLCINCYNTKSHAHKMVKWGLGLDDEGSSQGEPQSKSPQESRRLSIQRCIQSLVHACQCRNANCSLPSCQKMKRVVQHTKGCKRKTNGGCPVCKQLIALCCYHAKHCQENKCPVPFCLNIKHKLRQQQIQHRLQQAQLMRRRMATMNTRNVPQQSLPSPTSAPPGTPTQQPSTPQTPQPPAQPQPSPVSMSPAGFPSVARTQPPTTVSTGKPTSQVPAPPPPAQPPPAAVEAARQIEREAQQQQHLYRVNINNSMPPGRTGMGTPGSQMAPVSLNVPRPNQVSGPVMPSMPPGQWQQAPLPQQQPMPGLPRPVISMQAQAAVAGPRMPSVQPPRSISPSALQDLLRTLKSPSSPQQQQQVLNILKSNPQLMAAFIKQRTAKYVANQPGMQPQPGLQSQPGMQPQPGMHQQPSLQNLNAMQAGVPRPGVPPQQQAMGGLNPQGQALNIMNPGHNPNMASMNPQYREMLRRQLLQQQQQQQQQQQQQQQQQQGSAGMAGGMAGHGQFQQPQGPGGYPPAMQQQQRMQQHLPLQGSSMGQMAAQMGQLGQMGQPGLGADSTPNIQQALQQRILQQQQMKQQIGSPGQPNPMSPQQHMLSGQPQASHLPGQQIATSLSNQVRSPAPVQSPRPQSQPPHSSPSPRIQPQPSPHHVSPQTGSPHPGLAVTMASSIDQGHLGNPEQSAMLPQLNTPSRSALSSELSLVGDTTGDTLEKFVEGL

Study 1
Structure (SMILES): Cc1cc(OCc2nnc(SC3CCCC3)n2-c2cccnc2)ccc1-c1ccc(S(C)(=O)=O)cc1
Measurement: CC50
cell line = UACC-62; result = 6.9 µM
cell line = T47D; result = > 100 µM
cell line = A498; result = 4.47 µM

Mixed results
Compound = O=C(Nc1ccc(C(F)(F)F)cc1)NC1CCN(c2c(NS(=O)(=O)Cc3ccccc3)c(=O)c2=O)CC1; target or system = EPHX2 (Homo sapiens, UniProt P34913); measurement = IC50; result = 0.0029 ± 0.0005 µM
Compound = CC[C@@H]1C(=O)N(C)c2cnc(Nc3ccc(C(=O)NC4CCN(C)CC4)cc3OC)nc2N1C1CCCC1; target or system = CREBBP (Homo sapiens, UniProt Q92793); assay = thermal stabilisation, thermal shift; setting = 10 µM; measurement = ΔTm; result = 0.15 ± 0.25 °C
Compound = N#Cc1ccc(-c2csc(CNC(=O)C34CC(CN(C(=O)COCCF)C3)C4)n2)cc1; system = Sprague Dawley rats male, plasma; setting = oral, 3 mg/kg; measurement = half-life; result = 3.6 h

Some of these lines once more (mixed results):
Compound = N#Cc1ccc(-c2csc(CNC(=O)C34CC(CN(C(=O)COCCF)C3)C4)n2)cc1; system = Sprague Dawley rats male, plasma; setting = oral, 3 mg/kg; measurement = half-life; result = 3.6 h
